Published values collected from several papers.
Numbers after ± are the reported error. Converted amounts (≈) assume the structure as drawn.
Chain of UniProt O33336 (whole entry, looked up): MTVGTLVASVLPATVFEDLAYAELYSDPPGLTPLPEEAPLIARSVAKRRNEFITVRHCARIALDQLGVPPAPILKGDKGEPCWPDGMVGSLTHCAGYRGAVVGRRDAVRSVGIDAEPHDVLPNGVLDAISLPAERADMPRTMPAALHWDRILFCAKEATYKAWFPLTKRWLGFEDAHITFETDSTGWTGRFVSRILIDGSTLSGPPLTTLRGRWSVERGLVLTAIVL

CCCCCCCCCCCCC(=O)O.O=C1CCCC2C3CCCN4CCCC(CN12)C34 (stereo not drawn)
standard Gibbs energy of aggregation (electrical conductivity; water; 313.15 K): -8.83 kcal/mol

CCCC[C@H](NC(=O)CNC(=O)CNC(=O)c1ccc(NN)nc1)C(=O)N[C@H]1CC(=O)NCCCC[C@@H](C(N)=O)NC(=O)[C@H](Cc2c[nH]c3ccccc23)NC(=O)[C@H](CCCNC(=N)N)NC(=O)[C@@H](Cc2ccccc2)NC(=O)[C@H](Cc2c[nH]cn2)NC1=O [technetium-99m labelled]
tissue uptake ratio (C57 mouse, B16/F1 melanoma-bearing; intravenous, 24 h; baseline: tumour over muscle): 151

COC(=O)C[C@](O)(CCCC(C)(C)OC(C)=O)C(=O)O[C@@H]1C(OC)=C[C@]23CCCN2CCc2cc4c(cc2[C@H]13)OCO4
tissue concentration (CD1 mouse, brain; subcutaneous, 1 mg/kg, 0.5 h): 9.67 ng/mL

CC1(O)CC23CC(O)C4(O)C(C5OC5C4(C)C)C(C)(O)C2CCC1C3O (stereo not drawn)
LD50 (ICR mouse; oral, 7 days): 3.62 mg/kg

Cc1nc(=O)c2cc(CN(C)c3ccc(C(=O)N[C@H](CCc4nn[nH]n4)C(=O)O)s3)ccc2[nH]1
Hill slope (4'-phosphopantetheinyl transferase PptT (Mycobacterium tuberculosis, UniProt O33336); enzyme activity, inhibitor, fluorescence polarization): 1.7

N=C(N)NCCC[C@@H]1NC(=O)[C@H](CCCCNC(=O)CC[C@H](NC(=O)CCOCCOCCOCCOCCNC(=O)CN2CCN(CC(=O)O)CCN(CC(=O)O)CCN(CC(=O)O)CC2)C(=O)NCCCC[C@@H]2NC(=O)[C@@H](Cc3ccccc3)NC(=O)[C@H](CC(=O)O)NC(=O)CNC(=O)[C@H](CCCNC(=N)N)NC2=O)NC(=O)[C@@H](Cc2ccccc2)NC(=O)[C@H](CC(=O)O)NC(=O)CNC1=O [indium-111 labelled]
tissue uptake (athymic nude mice, female, U-87 MG glioma xenograft, bone; intravenous, 3 µCi, 72 h): 0.43 ± 0.06 %ID/g

CC(=O)[O-].CN1CCCN2CCN(CCCN(Cc3ccccc3)CC2)CC1.F[P-](F)(F)(F)(F)F.[Co+2]
E1/2 (cyclic voltammetry, measured: first Co2+/Co3+ couple; acetonitrile; baseline: SHE): 0.293 V

O=c1c2cc(Cl)ccc2sc2c(NCc3ccccc3)nc3ccccc3c12
body weight (BALB/c nude mice; i.p., 60 mg/kg): 19 ± 2.24 g

COc1c(C[C@@H](C)O)c2c3c(C[C@@H](C)O)c(OC)c(=O)c4c(O)cc5c(c6c(cc(O)c(c1=O)c62)OCO5)c43
molar absorption coefficient (at 670 nm): 120 M⁻¹ cm⁻¹

CC[C@H](C)[C@@H]1NC(=O)[C@H](CCCCN)NC(=O)[C@H](CCCCN)NC(=O)[C@H](Cc2ccc(O)cc2)NC(=O)[C@H](CC(C)C)NC(=O)[C@@H]2CCCN2C(=O)[C@H](C)NC(=O)CNC(=O)CNC(=O)[C@H](CO)NC(=O)CNC(=O)CNC(=O)[C@H](CC(N)=O)NC(=O)[C@H](CCC(=O)O)NC(=O)[C@H](CC(C)C)NC(=O)[C@H](CC(C)C)NC(=O)[C@H](CCCCN)NC(=O)[C@H](CCCCN)NC(=O)[C@H]([C@@H](C)CC)NC(=O)[C@H]([C@@H](C)CC)NC(=O)[C@H](CCCCN)NC(=O)[C@H](CCCCN)NC(=O)[C@H](Cc2ccc(O)cc2)NC(=O)[C@H](CC(C)C)NC(=O)[C@@H]2CCCN2C(=O)[C@H](C)NC(=O)CNC(=O)CNC(=O)[C@H](CO)NC(=O)CNC(=O)CNC(=O)[C@H](CC(N)=O)NC(=O)[C@H](CCC(=O)O)NC(=O)[C@H](CC(C)C)NC(=O)[C@H](CC(C)C)NC(=O)[C@H](CCCCN)NC(=O)[C@H](CCCCN)NC(=O)[C@H]([C@@H](C)CC)NC1=O
HC10 (hemolysis; uninfected human erythrocytes; 1 h): 79.9 ± 8.3 µM

[2H]C([2H])([2H])C([2H])([2H])C([2H])([2H])OC(C(=O)OC1CCNCC1)(c1ccccc1)c1ccccc1
adverse events (measured: any; healthy Japanese male; oral, 8 mg once daily, 16 days): 0%

COC(=O)C[C@H](NC(=O)[C@H](C)NC(=O)[C@@H](NC(=O)[C@H](CC(=O)OC)NC(=O)[C@@H](NC(=O)c1ccc2ccccc2n1)C(C)C)C(C)C)C(=O)COc1c(F)cccc1F
PaCO2 (rat pups; 1 mg/kg, 1 h): 42.1 ± 2.58 mmHg

CNC(=O)c1cccc(-c2ccc(O[C@H]3O[C@H](CO)[C@@H](O)[C@H](O)[C@@H]3O)c(C)c2)c1
half-life (rat; oral, 10 mg/kg, 10% cyclodextrin formulation): 2.8 h

CC(C)[C@H](NC(=O)CNC(=O)[C@H](CCC(N)=O)NC(=O)[C@H](C)N)C(=O)O
drug-related adverse events (human; intravenous infusion, 15 mg/kg/h, 2 h, relatedness Definitely; baseline: subjects): 0%

CC(C)[C@@H](CN1CC[C@@](C)(c2cccc(C(N)=O)c2)[C@@H](C)C1)NC(=O)[C@H]1Cc2ccc(O)cc2CN1
kinetic solubility (10 mM phosphate buffer; 90 min, pH 7.4, room temperature, 1% DMSO): 54 µM (≈ 26.6 µg/mL)

C#Cc1c(F)ccc2cc(O)cc(-c3ncc4c(N5CC6CCC(C5)N6C(=O)/C(C)=C(/C)C(=O)OCCCC)nc(OC[C@@]56CCCN5C[C@H](F)C6)nc4c3F)c12
half-life (metabolic stability; mouse, liver microsomes; 1 µM, pH 7.4): 0.595 h

C/C=C/C=C/C/C=C/CCCCCCCc1cccc(O)c1O
tissue concentration (female Kunming mice tumour-bearing, lungs; intravenous, 10 mg/kg, 0.5 h): 20500 ± 2320 ng/g

CN[C@](C)(C[18F])C(=O)O
tissue uptake (SCID mouse DU-145 xenograft, spleen; 60 min, post injection): 6.5 ± 0.9 %ID/g

COc1ccc(CNc2nc(N3CCC[C@H]3CO)ncc2C(=O)NNC(=O)c2cnc(N3CCC[C@H]3CO)nc2NCc2ccc(OC)c(Cl)c2)cc1Cl
revertant count (Salmonella typhimurium; TA1535; 250 µg/plate, 48 h): 25 ± 4

CSCC[C@H](NC(=O)CNC(=O)[C@H](CC(=O)O)NC(=O)[C@@H](NC(=O)[C@@H](NC(=O)[C@@H](NC(=O)CNC(=O)[C@H](CCC(N)=O)NC(=O)[C@H](CCSC)NC(=O)[C@H](CC(=O)O)NC(=O)[C@H](C)NC(=O)[C@H](C)NC(=O)[C@@H](NC(=O)[C@H](CO)NC(=O)[C@@H](N)CC(C)C)[C@@H](C)O)C(C)C)C(C)C)[C@@H](C)O)C(=O)N[C@@H](C)C(=O)N[C@@H](CO)C(=O)NCC(=O)N[C@@H](CC(C)C)C(=O)N[C@@H](CC(=O)O)C(=O)N[C@@H](CCCCN)C(=O)N[C@@H](CC(=O)O)C(=O)N[C@@H](Cc1ccc(O)cc1)C(=O)N[C@@H](CC(C)C)C(=O)N[C@@H](CCCCN)C(=O)N1CCC[C@H]1C(=O)N[C@@H](CC(=O)O)C(=O)N[C@@H](CC(=O)O)C(=O)O
MTD, cumulative dose (p53-positive advanced solid tumour patients; IV, dose levels 2 to 5): > 140 mg/kg

Cc1ccc(/C=C/C(=O)O)cc1-c1cc2c(cc1C)C(C)(C)CCC2(C)C
AUC(0-inf) (rat, Sprague-Dawley, male, plasma; oral, 100 mg/kg, sesame oil vehicle): 24700 ng·h/mL

COc1cc2c3c(c4cc(OC)c(OC)cc4c2cc1OC)CN1CCCCC1C3 (stereo not drawn)
half-life (Sprague-Dawley rats, male; oral, dose not given): 15.1 h

N=C(N)NCc1ccc(C(=O)NCCCC[C@H](NC(=O)CCCCCCC(=O)NCCCC[C@H](NC(=O)N[C@@H](CCC(=O)O)C(=O)O)C(=O)O)C(=O)O)cc1[131I]
tissue uptake (SCID mouse, PC-3 xenografts, kidneys; 21 h): 3.03 ± 2.96 %ID/g

Cc1cc(-c2ccc3ccccc3c2)nnc1NCCN1CCN(C)CC1
half-life (metabolic stability; human, liver microsomes): > 1 h

CC[C@H](C)C(=O)N1CCC(NC(=O)Nc2ccc(OC(F)(F)F)c(F)c2)CC1
subjects with serious TEAE (healthy volunteers; oral, 16 mg single dose): 0%

N=C(N)NCCC[C@@H]1NC(=O)[C@H](CCCCNC(=O)CCOCCOCCOCCOCCNC(=O)CN2CCN(CC(=O)O)CCN(CC(=O)O)CCN(CC(=O)O)CC2)NC(=O)[C@@H](Cc2ccccc2)NC(=O)[C@H](CC(=O)O)NC(=O)CNC1=O [indium-111 labelled]
tissue uptake (athymic nude mice, female, U-87 MG glioma xenograft, U-87 MG tumour; intravenous, 3 µCi, 0.5 h): 3.74 ± 0.55 %ID/g

CCNc1cc2[o+]c3cc(NCC)c(C)cc3c(-c3ccccc3C(=O)OCCOCC[18F])c2cc1C
tissue uptake (rat, thyroid/trachea; 120 min): 1.08 ± 0.12 %ID/g

CC(=O)N[C@@H](CCCNC(=N)N)C(=O)N[C@@H](CCCCN)C(=O)N[C@@H](CCC(=O)N=S(c1ccc(Cl)cc1)c1ccccc1O)C(=O)N[C@H](C(=O)N[C@@H](Cc1ccc(O)cc1)C(N)=O)C(C)C (stereo partly drawn)
chemical stability (PBS; 0.2 mM, up to 24 h, pH 7.4, 37 °C): stable

CSCC[C@@H]1NC(=O)[C@@H]2CSSC[C@H](NC(=O)[C@H](CO)NC(=O)[C@H](C)N)C(=O)N[C@@H](CCCNC(=N)N)C(=O)N[C@@H]([C@@H](C)O)C(=O)N3CCC[C@H]3C(=O)N[C@@H](CCCCN)C(=O)N[C@@H](CC(=O)O)C(=O)N[C@H]3CSSC[C@H](NC(=O)[C@H](CCCCN)NC(=O)[C@H](CCCNC(=N)N)NC(=O)[C@H](CC(N)=O)NC1=O)C(=O)N[C@@H](CCCCN)C(=O)N[C@H]1CSSC[C@H](NC(=O)[C@@H]4CCCN4C(=O)[C@H](CC(=O)O)NC(=O)[C@H](C)NC3=O)C(=O)N[C@@H](C)C(=O)N[C@@H](CCCCN)C(=O)N[C@@H](CCC(=O)O)C(=O)N[C@@H]([C@@H](C)O)C(=O)NCC(=O)N[C@@H](CSSC[C@@H](C(N)=O)NC(=O)[C@H](CCCNC(=N)N)NC(=O)[C@H](CC(N)=O)NC1=O)C(=O)N1CCC[C@H]1C(=O)N[C@@H](Cc1ccc(O)cc1)C(=O)NCC(=O)N[C@@H](CCCCN)C(=O)N2
globulin (DA rat, pristane-induced arthritis, serum; subcutaneous, 0.1 mg/kg once weekly, end of 21-day trial): 1.16 g/dL

N#Cc1ccc(NC(=O)c2cccnc2)cc1Cl
thermodynamic solubility (sodium acetate buffer; 24 h, pH 4.0, room temperature): 27.6 ± 2.1 µg/mL (≈ 107 µM)

NS(=O)(=O)NCCc1ccccc1F
TD50 (rotarod impairment; mouse; intraperitoneal): 170 ± 5 mg/kg

CCN(Cc1ccccc1)C(=O)CCc1nc(CN2CCN(C(=O)Cc3ccc(OC)c(OC)c3)CC2)no1
concentration (rat, liver; intravenous, 1 mg/kg, 5 min, single dose): 53 ng/g

CN(C)C(CNC(=O)Nc1cc(C(F)(F)F)ccc1N1CCOCC1)c1ccncc1 (stereo not drawn)
blood urea nitrogen (mouse, serum; intraperitoneal, 240 mg/kg single dose): 26 mg/dL

CC(C)[C@H](NC(=O)CNC(=O)[C@H](CCC(N)=O)NC(=O)[C@H](C)N)C(=O)O
subjects with serious AE (healthy male volunteers; intravenous, 90 mg/kg/h, 2 h, together with: LPS 2 ng/kg): 0%

C[C@H](CCC(=O)N[C@@H](CCCCNC(=O)C(F)(F)F)C(=O)O)[C@H]1CC[C@H]2[C@@H]3[C@H](O)C[C@@H]4C[C@H](O)CC[C@]4(C)[C@H]3C[C@H](O)[C@]12C
Tmax (C57BL/6J mice, liver; oral, 50 mg/kg): 1 h

O=P([O-])([O-])Oc1ccc(-c2cc(=S)ss2)cc1.[Na+].[Na+]
solubility (HPLC; aqueous buffer; pH 7.4, 25 °C): ~1500 µg/mL

A few entries again:
O=c1c2cc(Cl)ccc2sc2c(NCc3ccccc3)nc3ccccc3c12
body weight (BALB/c nude mice; i.p., 60 mg/kg): 19 ± 2.24 g

Cc1cc(-c2ccc3ccccc3c2)nnc1NCCN1CCN(C)CC1
half-life (metabolic stability; human, liver microsomes): > 1 h

Cc1nc(=O)c2cc(CN(C)c3ccc(C(=O)N[C@H](CCc4nn[nH]n4)C(=O)O)s3)ccc2[nH]1
Hill slope (4'-phosphopantetheinyl transferase PptT (Mycobacterium tuberculosis, UniProt O33336); enzyme activity, inhibitor, fluorescence polarization): 1.7

COc1cc2c3c(c4cc(OC)c(OC)cc4c2cc1OC)CN1CCCCC1C3 (stereo not drawn)
half-life (Sprague-Dawley rats, male; oral, dose not given): 15.1 h

NS(=O)(=O)NCCc1ccccc1F
TD50 (rotarod impairment; mouse; intraperitoneal): 170 ± 5 mg/kg

N=C(N)NCc1ccc(C(=O)NCCCC[C@H](NC(=O)CCCCCCC(=O)NCCCC[C@H](NC(=O)N[C@@H](CCC(=O)O)C(=O)O)C(=O)O)C(=O)O)cc1[131I]
tissue uptake (SCID mouse, PC-3 xenografts, kidneys; 21 h): 3.03 ± 2.96 %ID/g
